Assay results collected from several papers.
Protocols differ between the studies behind these lines. “And” joins repeats or separate records; there may be more than shown. ± gives the spread as reported. Positions of bridges follow the written chain, without caps; N, C: chain ends. No end group written: not given here.
NR1H3: Oxysterols receptor LXR-alpha (NR1H3, Homo sapiens, UniProt Q13133)
Sequence of UniProt Q13133 (whole entry, looked up): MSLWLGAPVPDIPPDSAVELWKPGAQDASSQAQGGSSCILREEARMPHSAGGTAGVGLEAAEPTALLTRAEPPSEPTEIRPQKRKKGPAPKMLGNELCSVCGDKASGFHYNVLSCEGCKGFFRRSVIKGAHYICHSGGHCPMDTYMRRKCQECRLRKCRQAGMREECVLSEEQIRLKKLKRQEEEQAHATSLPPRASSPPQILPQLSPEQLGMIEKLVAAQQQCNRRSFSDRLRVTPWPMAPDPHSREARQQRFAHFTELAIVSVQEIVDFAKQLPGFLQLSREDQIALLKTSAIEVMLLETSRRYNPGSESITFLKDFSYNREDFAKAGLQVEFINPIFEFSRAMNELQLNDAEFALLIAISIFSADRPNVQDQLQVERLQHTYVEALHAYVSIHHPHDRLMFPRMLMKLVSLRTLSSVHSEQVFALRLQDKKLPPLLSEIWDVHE
Sequence of UniProt Q9QXD6 (whole entry, looked up): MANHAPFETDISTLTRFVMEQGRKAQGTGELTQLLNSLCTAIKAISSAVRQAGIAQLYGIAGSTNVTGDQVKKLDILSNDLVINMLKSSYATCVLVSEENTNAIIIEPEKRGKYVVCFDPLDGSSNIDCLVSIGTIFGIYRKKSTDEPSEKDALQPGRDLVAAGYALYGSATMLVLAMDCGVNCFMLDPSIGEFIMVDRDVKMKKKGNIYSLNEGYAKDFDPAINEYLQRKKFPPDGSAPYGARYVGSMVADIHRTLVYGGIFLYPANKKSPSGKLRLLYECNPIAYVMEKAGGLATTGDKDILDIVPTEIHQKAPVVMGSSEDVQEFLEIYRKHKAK
Sequence of UniProt O96013 (whole entry, looked up): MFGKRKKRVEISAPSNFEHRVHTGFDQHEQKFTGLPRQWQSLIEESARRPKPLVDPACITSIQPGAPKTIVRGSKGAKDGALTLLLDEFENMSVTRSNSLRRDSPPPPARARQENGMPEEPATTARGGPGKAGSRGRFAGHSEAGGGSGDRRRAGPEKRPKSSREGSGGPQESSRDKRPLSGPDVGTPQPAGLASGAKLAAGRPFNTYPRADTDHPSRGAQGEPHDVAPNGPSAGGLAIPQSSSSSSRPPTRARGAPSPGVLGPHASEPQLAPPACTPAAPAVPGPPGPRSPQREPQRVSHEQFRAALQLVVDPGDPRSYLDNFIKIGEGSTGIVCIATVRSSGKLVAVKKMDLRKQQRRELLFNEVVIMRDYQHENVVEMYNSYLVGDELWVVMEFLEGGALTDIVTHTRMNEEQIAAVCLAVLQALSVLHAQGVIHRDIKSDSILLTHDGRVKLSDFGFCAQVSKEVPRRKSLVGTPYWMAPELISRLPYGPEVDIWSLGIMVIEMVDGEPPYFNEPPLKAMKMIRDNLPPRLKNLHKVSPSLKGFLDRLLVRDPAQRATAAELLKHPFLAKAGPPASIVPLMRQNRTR
Sequence of UniProt P22629 (whole entry, unmodified, looked up): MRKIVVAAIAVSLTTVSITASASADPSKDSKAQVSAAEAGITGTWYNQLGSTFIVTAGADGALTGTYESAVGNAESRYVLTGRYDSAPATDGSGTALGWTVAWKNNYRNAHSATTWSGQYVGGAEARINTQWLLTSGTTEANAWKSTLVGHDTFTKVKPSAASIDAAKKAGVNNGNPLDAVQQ
Sequence of UniProt P55212 (whole entry, looked up): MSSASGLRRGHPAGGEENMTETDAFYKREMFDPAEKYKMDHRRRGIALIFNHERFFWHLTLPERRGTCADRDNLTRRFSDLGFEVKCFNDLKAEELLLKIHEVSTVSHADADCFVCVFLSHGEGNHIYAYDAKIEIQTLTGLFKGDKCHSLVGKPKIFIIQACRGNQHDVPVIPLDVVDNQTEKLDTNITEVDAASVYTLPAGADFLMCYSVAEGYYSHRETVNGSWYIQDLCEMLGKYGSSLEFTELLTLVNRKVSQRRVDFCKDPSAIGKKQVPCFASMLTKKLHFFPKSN

For `Ac-DEVD-CHO`, the IC50 was 45.3 nM (Caspase-6 (CASP6, Homo sapiens, UniProt P55212); enzyme activity, inhibitor).
The Kd of `ACIMVHYDRVECSG (disulfide 2-12 (inferred)) (disulfide)` is reported as 0.8 ± 0.2 nM (Streptavidin (Streptomyces avidinii, UniProt P22629, E68V/S69T/V71R); binding, yeast surface display; 1 h, 4 °C, added: Strep-Tactin).
`CRQLRKGKFFSEGGSGGTSFEQFWAWLWP` has a DC50 of ~200 nM (PAK4 (Homo sapiens, UniProt O96013); degrader, Western blot, measured: PAK4 protein; peptide, 786-O cells; concentration not given).
For `TNP-AMP`, the Kd was 19400 ± 1860 nM (Fructose-1,6-bisphosphatase 1 (Mus musculus, UniProt Q9QXD6); fluorescence titration; 1 µM enzyme, untagged; 25 °C, wild type).
With `abamectin` the IC50 was 2030 ± 1620 nM (NR1H3; coactivator recruitment, antagonist, TR-FRET).
`dynorphin B` gave a Ki of 6.7 ± 3.5 nM (opioid receptor mouse; binding; CD-1 mouse brain).
`HVLVMSATRR` — result for “bicarbonate (total CO2)”: 19 mmol/L and 22 mmol/L and 24 mmol/L (peptide, C57BL/6J mice, male, serum; subcutaneous osmotic pump, 3 mg/kg/day peptide basis, 8 weeks).
Under “drug-related AE incidence rate”, `heparin sodium` is recorded as 100% (healthy Chinese adult volunteers; continuous intravenous infusion, dose not given, 5 days, excluding prolonged aPTT).
`insulin human` gave a fold change of 1.11 (measured: UCP2 mRNA; uninfected mouse, brain; i.p., dose not given; baseline: PBS).
The Kd of `hexaarginine` is reported as 9860 ± 1000 nM (PorA peptide pore; peptide binding, planar bilayer single-channel recording; pH 7.4, +15 mV, trans side, 150 mM KCl).
With `Ivermectin` the IC50 was 3570 ± 2670 nM (NR1H3; coactivator recruitment, antagonist, TR-FRET).
`nonaarginine` gave a Kd of 1360 ± 150 nM (PorA peptide pore; peptide binding, planar bilayer single-channel recording; pH 7.4, -20 mV, cis side, 150 mM KCl).
`aspterric acid` has an inhibition of 89.3% (root length; Arabidopsis thaliana Col-0 seeds; 6.25 µg/mL, seed germination; baseline: water control).

Excerpt of the above:
`dynorphin B` gave a Ki of 6.7 ± 3.5 nM (opioid receptor mouse; binding; CD-1 mouse brain).
